Published values from different studies.
Each line is one published result; not all experiments were run side by side.
SALL4 full length isoform A: Sal-like protein 4, full length isoform A (SALL4, Homo sapiens, UniProt Q9UJQ4, residues 1-1053)
Chain of UniProt Q9UJQ4 (whole entry, looked up): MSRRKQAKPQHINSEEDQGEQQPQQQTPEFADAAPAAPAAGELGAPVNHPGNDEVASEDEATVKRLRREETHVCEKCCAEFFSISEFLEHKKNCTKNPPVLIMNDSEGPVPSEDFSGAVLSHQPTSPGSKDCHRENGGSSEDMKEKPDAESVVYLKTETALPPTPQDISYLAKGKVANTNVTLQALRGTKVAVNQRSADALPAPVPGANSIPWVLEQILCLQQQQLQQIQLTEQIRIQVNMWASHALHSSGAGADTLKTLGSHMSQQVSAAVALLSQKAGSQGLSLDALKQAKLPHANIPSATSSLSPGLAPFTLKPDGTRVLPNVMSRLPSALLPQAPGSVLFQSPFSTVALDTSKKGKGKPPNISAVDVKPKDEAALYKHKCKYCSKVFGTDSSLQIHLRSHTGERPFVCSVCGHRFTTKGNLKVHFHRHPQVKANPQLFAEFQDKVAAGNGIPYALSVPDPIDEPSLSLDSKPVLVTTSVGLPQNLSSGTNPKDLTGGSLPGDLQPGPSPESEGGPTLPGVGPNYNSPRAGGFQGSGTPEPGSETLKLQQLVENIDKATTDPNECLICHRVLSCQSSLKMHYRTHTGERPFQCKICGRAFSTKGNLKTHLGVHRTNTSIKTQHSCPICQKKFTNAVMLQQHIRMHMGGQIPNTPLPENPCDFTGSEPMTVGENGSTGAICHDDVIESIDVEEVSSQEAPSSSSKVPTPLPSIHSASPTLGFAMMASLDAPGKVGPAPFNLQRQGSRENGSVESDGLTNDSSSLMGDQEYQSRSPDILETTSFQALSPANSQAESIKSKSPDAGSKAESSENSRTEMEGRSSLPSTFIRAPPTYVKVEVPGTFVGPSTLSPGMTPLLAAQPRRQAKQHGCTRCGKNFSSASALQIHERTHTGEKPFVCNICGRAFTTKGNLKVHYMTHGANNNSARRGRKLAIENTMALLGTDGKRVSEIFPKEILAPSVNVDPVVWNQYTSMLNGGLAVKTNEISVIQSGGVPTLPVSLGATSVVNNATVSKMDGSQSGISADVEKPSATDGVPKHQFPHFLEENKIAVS

Substance | target | test | test system | conditions | how to read | measurement | result
GCCTAGCACTTAGGACTGGGTTTAGGTTAGTGCTAGGTCTTGATTCGCTTGACGCTGCTG | Interferon regulatory factor 5, full length, phosphomimetic (IRF5, Homo sapiens, UniProt Q13568-2, residues 1-514, K96S/S451D/S453D/S456D/S462D) | protein-binding microarray | double-stranded DNA, one strand shown, in vitro | 250 nM, 60-bp whole probe, with: salmon DNA 0.4 mg/ml | relative to: random background probes, higher = stronger binding | log fluorescence | -0.359 z-score
GGTTGGTGTGGTTGG (2'F-ANA at 2 4 5 6 7 11 12 14 15) | Prothrombin, mature alpha-thrombin (F2, Homo sapiens, UniProt P00734) | aptamer microarray, sandwich | DNA with 2'F-ANA, in vitro | 200 nM, whole 15-mer aptamer, many near background, with: Cy3 exosite-II aptamer, 400 nM | higher = stronger binding | mean fluorescence intensity | 94.1 a.u.
PhoQ, residues 284 288 289 292 302 303 SQSLSM | PhoP, residues 12 14 15 18 19 NYFTV (Escherichia coli, UniProt P23836) | Sort-seq, item: YFP reporter | E. coli | PhoQ-PhoP variant library, with: 10 µM Mg2+ | relative to: high Mg2+ state, higher = stronger signaling | fold induction | 12.7
AGCCACAA | SALL4 full length isoform A | universal PBM | double-stranded DNA, one strand shown, in vitro | 600 nM, 8-mer, flanks averaged, mean of replicates | higher = stronger binding | E-score | 0.0255
GCCTAGCACTTAGGTCTCGGACTGGGCTAGTGCTAGGTCTTGATTCGCTTGACGCTGCTG | Interferon regulatory factor 5, full length, phosphomimetic (IRF5, Homo sapiens, UniProt Q13568-2, residues 1-514, S451D/S453D/S456D/S462D) | protein-binding microarray | double-stranded DNA, one strand shown, in vitro | 940 nM top, 60-bp whole probe, with: salmon DNA 0.4 mg/ml | relative to: random background probes, higher = stronger binding | fitted relative affinity | 0.813 z-score
ATCTCCGA | SALL4 full length isoform A | universal PBM | double-stranded DNA, one strand shown, in vitro | 600 nM, 8-mer, flanks averaged, mean of replicates | higher = stronger binding | E-score | -0.0365
AGTCGCGA | Histone acetyltransferase KAT6A, winged helix 1, GST fusion (KAT6A, Homo sapiens, UniProt Q92794, residues 1-85) | protein binding microarray | double-stranded DNA, one strand shown, in vitro | not given, 8-mer, flanks averaged, mean of 2 arrays, mostly near background | relative to: not given, higher = stronger binding | E-score | 0.191

For quick reference, copied from above:
Substance | target | test | test system | conditions | how to read | measurement | result
AGTCGCGA | Histone acetyltransferase KAT6A, winged helix 1, GST fusion (KAT6A, Homo sapiens, UniProt Q92794, residues 1-85) | protein binding microarray | double-stranded DNA, one strand shown, in vitro | not given, 8-mer, flanks averaged, mean of 2 arrays, mostly near background | relative to: not given, higher = stronger binding | E-score | 0.191
